Measurements from different studies.
Values joined by “and” are separate records of one study, mostly repeats; a detail may differ. ± marks the error that the study gave.

With `CCn1cc(C(=O)N2CCOCC2)c(=O)c2cc(NC3Cc4ccccc4C3)cnc21` the CL/F was 27.8 L/h (human overall, fed, plasma; oral, 900 mg twice daily, day 1, tablet, arithmetic mean).
The CL/F of `Cn1cncc1[C@@](N)(c1ccc(Cl)cc1)c1ccc2c(c1)c(-c1cccc(Cl)c1)cc(=O)n2C` is reported as 630 mL/min/m² (human, plasma; oral, median, across dose levels).
`C[C@H](O)c1cc(C(=O)N[C@@H](C)Cn2ccc(-c3ccc(C#N)c(Cl)c3)n2)n[nH]1` has a CL/F of 14.2 L/h (human, fasted, plasma; oral tablet, 300 mg, geometric mean).
`CC(C)c1nc(N(C)S(C)(=O)=O)nc(-c2ccc(F)cc2)c1/C=C/[C@@H](O)C[C@@H](O)CC(=O)O` gave a CL/F of 291 L/h (healthy human subjects, plasma; oral, 10 mg, arithmetic mean, with: none).
The CL/F of `C[C@H]1Oc2cc(cnc2N)-c2c(nn(C)c2C#N)CN(C)C(=O)c2ccc(F)cc21` is reported as 18 L/h (human patients, plasma; oral, cycle 2 day 1, mean, with: avelumab).
With `C#C[C@]1(CO)O[C@@H](n2cnc3c(N)nc(F)nc32)C[C@@H]1O` the CL/F was 24.3 L/h (human, fed, plasma; oral, 30 mg, geometric mean).
`C[C@@H](N)c1cc(Cl)ccc1Cn1c(=S)[nH]c(=O)c2[nH]ccc21` has a CL/F of 10.8 L/h (human, severe renal impairment, plasma; oral, 2.5 mg, geometric mean, single dose).
The CL/F of `C[C@H](Oc1ccc(Br)cc1-c1ccon1)C(=O)O` is reported as 4.39 L/h (human, plasma; oral, 400 mg twice daily, day 10, multiple ascending dose).
`C=C[C@@H]1C[C@]1(NC(=O)[C@@H]1C[C@@H](Oc2ncc(OC)c3ccc(Cl)cc23)CN1C(=O)[C@@H](NC(=O)OC(C)(C)C)C(C)(C)C)C(=O)NS(=O)(=O)C1CC1` has a CL/F of 61.6 L/h (population PK full model; human).
With `C#Cc1cccc(Nc2ncnc3cc(OCCOC)c(OCCOC)cc23)c1` the CL/F was ~8 L/h (human; 100 mg).
`CN1C(=O)[C@@H](NC(=O)c2nnc(Cc3ccccc3)[nH]2)COc2cccnc21` gave a CL/F of 5.55 L/h (healthy human, fasted, plasma; oral, 10 mg single dose, geometric mean).
With `O=C(O)CCC(=O)O.[2H]C([2H])([2H])Oc1cc(C)c2[nH]ccc2c1CN1CC[C@@H](C2CC2)C[C@H]1c1ccc(C(=O)O)cc1` the CL/F was 2.71 L/h (LC-MS/MS, mean; human, plasma; 400 mg, single dose, fasting).
With `CCCn1cc(C)c2c(=O)[nH]c(-c3cc(S(=O)(=O)N4CCN(CC)CC4)ccc3OCC)nc21` the CL/F was 665 ± 421 L/h (human; oral, 100 mg).
With `Cc1cc(/C=C/C#N)cc(C)c1Nc1ccnc(Nc2ccc(C#N)cc2)n1` the CL/F was 14.9 L/h (human, normal renal function; oral, steady state, fixed-dose combination).
`NC(=S)NN=Cc1ncccc1N` has a CL/F of 62.1 L/h (human, plasma; intravenous, 50 mg, geometric mean).
The CL/F of `Cn1cc(-c2cn3nccc3c(-c3cnn([C@]4(CC#N)C[C@@H](C#N)C4)c3)n2)cn1` is reported as 51.3 L/h (healthy human, plasma; 100 mg once daily, day 10, multiple dose, fed, geometric mean).
The CL/F of `COc1cc(N2CCC3(CCN(C)CC3)CC2)ccc1Nc1ncc(Cl)c(Nc2ccccc2P(C)(C)=O)n1` is reported as 18.9 L/h (population PK final model; human; outliers removed).
`CCN1CCN(Cc2ccc(Nc3ncc(F)c(-c4cc(F)c5nc(C)n(C(C)C)c5c4)n3)nc2)CC1` gave a CL/F of 48.2 L/h (fasted healthy human subjects; oral, 150 mg, tablet).
For `C=CC(=O)NC1CCN(c2ncc3ncnc(Nc4ccc(Oc5ccc6c(c5)ncn6C)c(C)c4)c3n2)CC1`, the CL/F was 9.42 L/h (human, plasma; oral, 240 mg single dose, fasted, geometric mean).
`C[C@@H](Oc1cc(-c2cnn(C3CCNCC3)c2)cnc1N)c1c(Cl)ccc(F)c1Cl` has a CL/F of 121 L/h (human patients, plasma; oral, cycle 2 day 1, mean, with: avelumab).
`COC(=O)N[C@@H](C)CNc1nccc(-c2cn(C(C)C)nc2-c2cc(Cl)cc(NS(C)(=O)=O)c2F)n1` has a CL/F of 26 L/h (human, plasma; oral, 50 mg, alone, posaconazole study).
With `CC1(COc2ccc3c(c2)ncn3-c2ccc3cccc(N4CCC(N)CC4)c3n2)COC1` the CL/F was 15 L/h/m² (human patients, recurrent/progressive HGG or DIPG, serum; oral, 100 mg/m^2, day 28, median).
`Nc1nc2cccc(-c3ccc(CN4CCS(=O)(=O)CC4)cc3)n2n1` gave a CL/F of 2.5 L/h (population PK model; human, plasma; oral).
For `Cn1c(=O)oc2ccc(-c3ccc(C[C@@H](C#N)NC(=O)[C@@H]4CNCCCO4)cc3)cc21`, the CL/F was 6.09 to 7.72 L/h (human, plasma; oral, 25 mg single dose, range over normal, mild, moderate groups).
`CC(C)c1nc(N(C)S(C)(=O)=O)nc(-c2ccc(F)cc2)c1/C=C/[C@@H](O)C[C@@H](O)CC(=O)O` has a CL/F of 260 L/h (human, plasma; 10 mg, geometric mean, with: vepdegestrant 200 mg).
For `CCN(CCO)CCCC(C)Nc1ccnc2cc(Cl)ccc12` (stereo not shown), the CL/F was 7.48 L/h and 6.24 L/h (human, whole blood; oral, 800 mg).
The CL/F of `C[C@H]1O[C@@H](O[C@H]2[C@@H](O)C[C@H](O[C@H]3[C@@H](O)C[C@H](O[C@H]4CC[C@@]5(C)[C@H](CC[C@@H]6[C@@H]5C[C@@H](O)[C@]5(C)[C@@H](C7=CC(=O)OC7)CC[C@]65O)C4)O[C@@H]3C)O[C@@H]2C)C[C@H](O)[C@@H]1O` is reported as 12.5 L/h (human; oral, substrate with omaveloxolone, with: omaveloxolone once daily).
With `CC(C)Nc1nc2cc(Cl)c(Cl)cc2n1[C@H]1O[C@@H](CO)[C@H](O)[C@@H]1O` the CL/F was 3.94 L/h (population PK model (NONMEM); human, 70 kg, no CMV; no CYP3A4 inhibitor/inducer).
`CCN1CCN(Cc2ccc(Nc3ncc(F)c(-c4cc(F)c5nc6n(c5c4)[C@H](C)CCC6)n3)nc2)CC1` gave a CL/F of 53.7 L/h (human, Phase Ib patients, plasma; 400 mg, multiple doses, mean, with: fulvestrant).
`Cn1nnc2c(C(N)=O)ncn2c1=O` gave a CL/F of 12.3 L/h/m2 (human patients, plasma; oral, 20 mg/m2, day 5, dose level DL3, median, with: talazoparib 600 µg/m2).
`CNC(=O)n1ccc2cc(Oc3ccnc(NC(=O)c4ccc(C5CCN(CCO)CC5)cc4)c3)c(OCCOC)cc21` has a CL/F of 349 L/h (healthy human; oral, 35 mg, high-fat meal, geometric mean).
With `C[C@@H](Oc1ccc(S(C)(=O)=O)cc1C(=O)N1C[C@@H]2C[C@]2(c2cc(C(F)(F)F)on2)C1)C(F)(F)F` the CL/F was 4.19 L/h (elderly humans, plasma; 25 mg once daily, single dose, geometric mean).
`CC1(C)CC[C@]2(NC(=O)C(C)(F)F)CC[C@]3(C)[C@H](C(=O)C=C4[C@@]5(C)C=C(C#N)C(=O)C(C)(C)[C@@H]5CC[C@]43C)[C@@H]2C1` gave a CL/F of 104 L/h (human, plasma; oral, 150 mg single dose, alone, geometric mean).
`Cc1ncnc2c1ccn2[C@@H]1C[C@H](Oc2cc(C(F)F)c(F)c3c2CNCC3)[C@@H](O)[C@H]1O` has a CL/F of 11 L/h (human; oral, 0.5 mg twice daily).
